Experimental data gathered from unrelated publications.
Protocols differ between the studies behind these lines. Numbers after ± are the reported error.
Organism: Salmonella typhimurium

SMILES = Cc1cc(C(=O)NC(C)(C)COc2cccc3c2C(N)=NS(=O)(=O)N3)cc(C)n1; test = Ames test, initial; test system = TA98; setting = 1.50 µg/plate, added: rat liver S9; scale = relative to: solvent control; endpoint = revertant ratio; result = 0.8
SMILES = CC(=O)N1CCC(C(=O)N2CCN3C(=O)c4cc(-c5ccccc5)ccc4NC(=O)C3C2)CC1 (stereo not drawn); test system = TA1535; setting = 158 µg/plate, added: rat liver S9; endpoint = revertants per plate; result = 8.5
SMILES = CN(N=O)c1ccc(F)cc1; test = mutagenicity, Ames plate incorporation; test system = TA1535; setting = 1500 µg/plate, 3 d, without S9, methanol; endpoint = revertant colonies per plate; result = 19.3 ± 11
SMILES = O=[N+]([O-])c1ccc(NC2CCNCC2)c(C(F)(F)F)c1; test = genotoxicity, SOS/umu test; test system = TA1535/pSK1002; setting = 0.031 mg/mL, 4 h, without S9, full range; endpoint = induction factor; result = 0.9
SMILES = CC(C)N(C)N=O; test = mutagenicity, Ames plate incorporation; test system = TA100; setting = 50 µg/plate, 3 d, without S9, methanol; endpoint = revertant colonies per plate; result = 158 ± 21
SMILES = OC(CCN1CC=C(c2ccc(F)cc2)CC1)c1ccc(F)c2ccccc12 (stereo not drawn); test = SOS/umu test; test system = TA1535/pSK1002; setting = 0.063 mg/mL, 4 h, without S9, lower range; endpoint = survival; result = 27.2%
SMILES = COCCN(CCOC)N=O; test = mutagenicity, Ames plate incorporation; test system = TA98; setting = 2500 µg/plate, 3 d, without S9, methanol; endpoint = revertant colonies per plate; result = 23.7 ± 8
SMILES = COc1cccc(-c2n[nH]c(SCc3ccccn3)n2)c1OC; test = Ames test, plate incorporation; test system = TA100; setting = 0.031 mg/plate, without S9; endpoint = revertant colonies per plate; result = 110
SMILES = O=[N+]([O-])c1ccc(N2CCN(CCC(O)c3ccc(F)cc3)CC2)c(C(F)(F)F)c1 (stereo not drawn); test = genotoxicity, SOS/umu test; test system = TA1535/pSK1002; setting = 0.031 mg/mL, 4 h, without S9, lower range; endpoint = induction factor; result = 1
SMILES = CNC(=O)c1c(N(C)N=O)ncn1C; test = plate incorporation; test system = TA1537, water; setting = 5000 µg/plate, without S9; endpoint = revertant colonies per plate; result = 8 ± 2
SMILES = N#C[C@@]1(n2ccc(N)nc2=O)O[C@H](CO)[C@@H](O)[C@H]1O; test system = TA100; setting = 5 µM, without S9, unit not given; scale = relative to: control; endpoint = viability; result = 104
SMILES = Fc1ccc(C2=CCNCC2)cc1; test = genotoxicity, SOS/umu test; test system = TA1535/pSK1002; setting = 0.002 mg/mL, 4 h, with S9, full range; endpoint = induction factor; result = 1.1

Repeated from above:
SMILES = COc1cccc(-c2n[nH]c(SCc3ccccn3)n2)c1OC; test = Ames test, plate incorporation; test system = TA100; setting = 0.031 mg/plate, without S9; endpoint = revertant colonies per plate; result = 110
